Results of several laboratories.
Lines come from different studies, so protocols differ. “And” joins repeats or separate records; there may be more than shown. ± gives the spread as reported. ≈ marks a conversion by molar mass, not a printed value.

SMILES | organism | test | test system | conditions | scale | endpoint | value
Cc1cc(C(=O)Nc2nc3cccc(C)c3n2[C@H]2CCCCN(C(=O)/C=C/CN(C)C)C2)ccn1 | Trypanosoma brucei brucei | – | 2T1 wild type | 0.8333 µM | – | survival | -0.0475% and -0.0536% and -0.0469% and -0.11% and -0.06% and -0.09%
CN(CCO)CCO.O=C(O)C(Cl)Cl | Eclipta prostrata | – | – | 15 mg/mL, 21 days, post-emergence, greenhouse | – | herbicidal inhibition | -35%
CCOC(=O)C1(Cc2ccccc2C#N)Oc2cc(F)ccc2N(Cc2ccccc2C#N)C1=O (stereo not shown) | Eclipta prostrata | fresh weight, greenhouse postemergence | – | postemergence, 150 g ai/ha, 21 days | – | inhibition | 50.2 ± 2.36%
CC[C@H](C)CCCCC(=O)N[C@@H](CCN)C(=O)N[C@H](C(=O)N[C@@H](CCN)C(=O)N[C@H]1CCNC(=O)[C@H]([C@@H](C)O)NC(=O)[C@H](CCN)NC(=O)[C@H](CCN)NC(=O)[C@H](CC(C)C)NC(=O)[C@@H](CC(C)C)NC(=O)[C@H](CCN)NC1=O)[C@@H](C)O | Escherichia coli | daily serial passaging | ATCC 8739 | highest sub-MIC, 47 days | baseline: initial MIC | MIC fold change | 5.05
CCOC(=O)C1(Cc2ccc(C#N)cc2F)Oc2cc(F)ccc2N(Cc2ccc(C#N)cc2F)C1=O (stereo not shown) | Eclipta prostrata | fresh weight, greenhouse postemergence | – | postemergence, 150 g ai/ha, 21 days | – | inhibition | 56.4 ± 1.9%
Cc1cc(N2CCC(C#N)(C3(C)CC3)C2=O)cc(C(=O)NCc2cc(F)cc(-c3cnn(C)c3)c2)n1 (racemic) | Plasmodium falciparum | parasite growth | compound-resistant Dd2-B2 bulk 1_Bulk_10e5_D1 | – | – | IC50 | 60 nM
CCOC(=O)C1(Cc2ccccc2)Oc2ccccc2N(Cc2ccccc2)C1=O (stereo not shown) | Echinochloa crus-galli | fresh weight, greenhouse postemergence | – | postemergence, 150 g ai/ha, 21 days | – | inhibition | 42.5 ± 0.87%
[O-][N+]1=C(c2ccccc2)C2=NCCN2c2ccccc21 | Prevotella spp. | bacterial growth | – | – | – | MIC90 | ≤ 0.06 µg/mL
CCSC(SCC)c1ccc(OCCNS(=O)(=O)c2ccc(C)cc2)cc1 | Tobacco mosaic virus | inactivation activity | plant in vivo | – | – | EC50 | 515 ± 0.6 µg/mL
CC(O)CN(CC(C)O)CC(C)O.O=C(O)C(Cl)Cl (stereo not shown) | Eclipta prostrata | – | – | 15 mg/mL, 21 days, post-emergence, greenhouse | – | herbicidal inhibition | -26%
CCCCSC(SCCCC)c1ccc(OCCNS(=O)(=O)c2ccc(F)cc2)c(OC)c1 | Tobacco mosaic virus | curative activity | plant in vivo | – | – | EC50 | 329.5 ± 1.5 µg/mL
O=[N+]([O-])c1ccc(C2=[N+]([O-])c3ccccc3N3CCCN=C23)cc1 | Prevotella spp. | bacterial growth | – | – | – | MIC50 | ≤ 0.06 µg/mL
CCCSC(SCCC)c1ccc(OCCNS(=O)(=O)c2ccc(Cl)cc2)c(OC)c1 | Tobacco mosaic virus | curative activity | plant in vivo | – | – | EC50 | 464 ± 4.8 µg/mL
CCOC(=O)C1(CC=C(C)C)Oc2cc(F)ccc2N(CC=C(C)C)C1=O (stereo not shown) | Eclipta prostrata | fresh weight, greenhouse postemergence | – | postemergence, 150 g ai/ha, 21 days | – | inhibition | 51.9 ± 2.93%
C[C@H](NC(=O)[C@@H](O)c1cc(F)cc(F)c1)C(=O)N[C@@H]1C(=O)N(C)c2ccccc2-c2ccccc21 | dengue virus type 2 | viral replication, Renilla luciferase reporter virus | Huh-7.5.1 | 48 h | – | EC50 | 3 nM
CC(C)CCCCCCCCC/C=C/C(=O)N[C@@H](CC(=O)O)C(=O)N[C@H]1CNC(=O)[C@@H]2CCCN2C(=O)[C@H](C(C)C)NC(=O)[C@@H](CN)NC(=O)CNC(=O)[C@H](CC(=O)O)NC(=O)CNC(=O)[C@H](CC(=O)O)NC(=O)[C@H](CC(=O)O)NC(=O)[C@H]2CCCCN2C1=O | Enterococcus faecium | broth microdilution | daptomycin-resistant isolate, Mueller-Hinton broth, Mg2+ 10 mg/L | 16 h, together with: Ca2+ 5 mM | – | MIC | 4 µg/mL (≈ 3.13 µM)
C=CCN1C(=O)C(CC=C)(C(=O)OCC)Oc2cc(F)ccc21 (stereo not shown) | Sclerotinia sclerotiorum | microbial growth | – | 200 µg/mL | – | inhibition | > 50%
COc1ccc(C2=[N+]([O-])c3ccccc3N3CCN=C23)cc1 | Prevotella spp. | bacterial growth | – | – | – | MIC90 | ≤ 0.06 µg/mL
COc1cc(C(SC(C)C)SC(C)C)ccc1OCCNS(=O)(=O)c1ccc(Cl)cc1 | Tobacco mosaic virus | protective activity | plant in vivo | – | – | EC50 | 250 ± 3.5 µg/mL
COC(=O)C1=CO[C@@H](C)[C@@H]2Cn3ccc4c5ccccc5nc-4c3C[C@H]12 | Plasmodium falciparum | growth, [3H]-hypoxanthine uptake | FCR3 | 96 h | – | IC50 | 228 ± 71 nM
Cc1ccc(S(=O)(=O)NCCOc2ccc(C(SC(C)C)SC(C)C)cc2)cc1 | Tobacco mosaic virus | protective activity | plant in vivo | – | – | EC50 | 174 ± 2.1 µg/mL
CN[C@H](CC(C)C)C(=O)N[C@H]1C(=O)N[C@@H](CC(N)=O)C(=O)N[C@H]2C(=N)N[C@H]3C(=O)N[C@H](C(=O)N[C@H](C(=O)O)c4cc(O)cc(O)c4-c4cc3ccc4O)[C@H](O)c3ccc(c(Cl)c3)Oc3cc2cc(c3O)Oc2ccc(cc2Cl)[C@H]1O | Enterococcus faecium | – | ATCC BAA-2317 VanA | 30 µg/mL | baseline: no antibiotic | accumulation increase | 14 fold
CC(C)SC(SC(C)C)c1ccc(OCCNS(=O)(=O)c2cccc(Br)c2)c(Cl)c1 | Tobacco mosaic virus | inactivation activity | plant in vivo | – | – | EC50 | 262.9 ± 1.6 µg/mL
C[N+]1=C2C(c3ccc(Cl)cc3)=[N+]([O-])c3ccccc3N2CCC1 | Prevotella spp. | bacterial growth | – | – | – | MIC50 | 4 µg/mL
CCCSC(SCCC)c1ccc(OCCNS(=O)(=O)c2ccc(C)cc2)cc1 | Tobacco mosaic virus | protective activity | plant in vivo | – | – | EC50 | 597.1 ± 1.7 µg/mL
OB(O)c1ccc(C(F)(F)F)s1 | Staphylococcus aureus | crystal violet | USA300 wild type | 100 µM | baseline: wild type untreated | biofilm formation | 28% and 23.9% and 21.5%
COc1cc(C(SC(C)C)SC(C)C)ccc1OCCNS(=O)(=O)c1ccccc1C(F)(F)F | Tobacco mosaic virus | protective activity | plant in vivo | – | – | EC50 | 1063 ± 1.8 µg/mL
CCc1nn(C)c2nc(-c3ccc(C(=O)O)cc3)nc(NCc3ccccc3)c12 | Cryptosporidium parvum | – | HCT-8 | 9 x EC90, 72 h | baseline: DMSO control | parasite number | 27% and 23.1% and 16.8% and 26.8%

For quick reference, copied from above:
SMILES | organism | test | test system | conditions | scale | endpoint | value
CCOC(=O)C1(Cc2ccccc2C#N)Oc2cc(F)ccc2N(Cc2ccccc2C#N)C1=O (stereo not shown) | Eclipta prostrata | fresh weight, greenhouse postemergence | – | postemergence, 150 g ai/ha, 21 days | – | inhibition | 50.2 ± 2.36%
CN[C@H](CC(C)C)C(=O)N[C@H]1C(=O)N[C@@H](CC(N)=O)C(=O)N[C@H]2C(=N)N[C@H]3C(=O)N[C@H](C(=O)N[C@H](C(=O)O)c4cc(O)cc(O)c4-c4cc3ccc4O)[C@H](O)c3ccc(c(Cl)c3)Oc3cc2cc(c3O)Oc2ccc(cc2Cl)[C@H]1O | Enterococcus faecium | – | ATCC BAA-2317 VanA | 30 µg/mL | baseline: no antibiotic | accumulation increase | 14 fold
O=[N+]([O-])c1ccc(C2=[N+]([O-])c3ccccc3N3CCCN=C23)cc1 | Prevotella spp. | bacterial growth | – | – | – | MIC50 | ≤ 0.06 µg/mL
COc1cc(C(SC(C)C)SC(C)C)ccc1OCCNS(=O)(=O)c1ccc(Cl)cc1 | Tobacco mosaic virus | protective activity | plant in vivo | – | – | EC50 | 250 ± 3.5 µg/mL
